Published values pooled from the literature.
Each numbered part is a random draw from the data of one study; scales do not carry over between parts. Positions count from the first letter of the parent shown.

Block 1 — target: CCNF, cyclin fold, Cln2 fusion (human); technique: yeast growth competition, sequencing; medium: yeast; notes: strong parent motif; relative to: not given; direction: higher = stronger binding
Starting sequence: PKN2 docking peptide (human); VSAVRKLDFSDTM
Substitution | normalised enrichment score
VSGVRKLDFSDTM [A3G] | 5.94
VSQVRKLDFSDTM [A3Q] | 4.89
VSAVRKLDFGDTM [S10G] | 7.24
VSAVRKLKFSDTM [D8K] | 8.29
VSAVRKLCFSDTM [D8C] | 8.29
VSAERKLDFSDTM [V4E] | 3.26
VSARRKLDFSDTM [V4R] | 7.39
VSAVRKIDFSDTM [L7I] | 5.99
VSAFRKLDFSDTM [V4F] | 6.37
VSAVRDLDFSDTM [K6D] | 0.292
VHAVRKLDFSDTM [S2H] | 7.18
VSAGRKLDFSDTM [V4G] | 5.8
VQAVRKLDFSDTM [S2Q] | 7.41
VTAVRKLDFSDTM [S2T] | 7.01
VSAVYKLDFSDTM [R5Y] | -0.00216
VSAVRMLDFSDTM [K6M] | 6.75
VSAVRKLDFPDTM [S10P] | 7.02
VSAVRKLDFSDMM [T12M] | 6.86
VSAVRKLDNSDTM [F9N] | -0.0371
VSAVRKLFFSDTM [D8F] | 8.71
VSAVRKLDESDTM [F9E] | -0.335
VSAVRKLDFSWTM [D11W] | 7.82
VSTVRKLDFSDTM [A3T] | 7.23
VSAVRKLDFSDYM [T12Y] | 7.54
VSAVPKLDFSDTM [R5P] | -0.378

Block 2 — technique: protein binding microarray; molecule type: double-stranded DNA, one strand shown; medium: in vitro; tested at: not given; relative to: not given; direction: higher = stronger binding
Target: Histone acetyltransferase KAT6A, both winged helices, GST fusion (KAT6A, Homo sapiens, UniProt Q92794, residues 1-181)
Notes: 8-mer, flanks averaged, mean of 2 arrays, mostly near background
Target sequence (chain): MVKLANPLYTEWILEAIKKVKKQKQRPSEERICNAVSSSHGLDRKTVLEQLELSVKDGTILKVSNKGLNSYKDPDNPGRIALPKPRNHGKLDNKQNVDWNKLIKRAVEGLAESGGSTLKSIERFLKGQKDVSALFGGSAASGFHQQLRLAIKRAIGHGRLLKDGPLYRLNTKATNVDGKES
Sequence | E-score
TCAAAAGA | 0.0458
AGGTGAGA | -0.0574
ACGCCGGG | 0.26
ACCGAACT | -0.0639
ATAGCTGC | -0.129
CCCCGCCA | 0.165
CAATAACC | -0.00956
AGGCGGAC | 0.141
AGGCCATA | -0.112
ACAACAAA | -0.0404
CTGGTTGA | -0.227
GAAACCAA | -0.122
AGAAATAT | -0.00545
CCCCCGGA | 0.12
CCAAAGAC | -0.0725
CATCTGCC | -0.0602
AAAGCCAT | -0.0424
GCCAGTTA | -0.102
ACCGCTAG | 0.147

Block 3 — technique: universal PBM; molecule type: double-stranded DNA, one strand shown; medium: in vitro; tested at: not given; direction: higher = stronger binding
Target: Sal-like protein 4, full length isoform B (SALL4, Homo sapiens, UniProt Q9UJQ4-2, residues 1-616)
Notes: 8-mer, flanks averaged, mean of replicates
Sequence | E-score
TAAACTTA | 0.245
GAGCACAA | 0.00028
GATGGCAC | -0.304
ATATTAAG | 0.393
CTCGCGAG | -0.221
GCATTTAA | 0.109
CAATAACA | 0.295
AAAACTAG | 0.14
GAGGGCCA | -0.268
CGCTGAGA | -0.275
ATGGCGAG | -0.0973
ACCCTGTG | -0.201
ACTCGCGC | -0.144
AGTCTCCC | -0.158
CGTGGTAG | -0.288
GCTGTGTA | 0.00572
CGATCCAA | -0.0233
CTATCTCC | -0.0525

Block 4 — technique: RNA Bind-n-Seq; molecule type: RNA; medium: in vitro; tested at: 200 nM; notes: whole 134-nt RNA, ends assumed; added: 150 mM KCl; relative to: input library; direction: higher = stronger binding
Target: Ras GTPase-activating protein-binding protein 1, full length (G3BP1, Homo sapiens, UniProt Q13283)
Chain of UniProt Q13283 (whole entry, looked up): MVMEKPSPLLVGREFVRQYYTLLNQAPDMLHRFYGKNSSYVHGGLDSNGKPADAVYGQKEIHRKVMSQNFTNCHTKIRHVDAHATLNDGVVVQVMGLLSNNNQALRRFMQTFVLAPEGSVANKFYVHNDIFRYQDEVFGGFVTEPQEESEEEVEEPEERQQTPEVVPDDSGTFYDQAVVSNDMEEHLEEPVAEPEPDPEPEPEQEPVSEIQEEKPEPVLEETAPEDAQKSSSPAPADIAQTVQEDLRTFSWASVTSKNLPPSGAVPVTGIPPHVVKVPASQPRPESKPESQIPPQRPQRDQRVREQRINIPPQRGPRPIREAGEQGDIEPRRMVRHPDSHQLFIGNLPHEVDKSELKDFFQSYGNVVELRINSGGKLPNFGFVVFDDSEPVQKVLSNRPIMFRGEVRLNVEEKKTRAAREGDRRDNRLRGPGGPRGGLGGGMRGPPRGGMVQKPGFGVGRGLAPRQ
Shared flanks, not repeated: GGGAGUUCUACAGUCCGACGAUC … UGGAAUUCUCGGGUGUCAAGG
Sequence | log2 enrichment
AAGUCCUGUGCUACACAUCGUAUGUACCGAAUCGGUGGAAAAAAAGGAAAAAAAGGAAAGUAUUAUGUUACGCCGUUCGGAUCUGCACUU | -1.09
UGGCUGGCUGUGGCCUCACAGCUGAGGACUGCAAGGACCUUGCCUUUGGGCUGAGAGCCAACCAGACCCUGACCGAGCUGGACCUGAGCU | -2.06
ACCAUGCAGGUGGGCAUCUUUGGGAAGUGGGGCAAGGGGGGGAUAGGGAGGGGGGUAACACUUUGGGAACAGGUGGUCCCAGAAAGUUUC | 0.926
UGUUGUCUGGGUUUGGGGGUCGAGUAGAUGCGGGGCAGCCGGAGCUGUUGACGGAAAGGAGUAGCCCCAAAGGAGGGCAUGUGAAGUCGC | -0.348
AAGUCCUGUGCUACACAUCGUAUGUACCGAAUCGGGGUUUGGGGAAAGGGGAGGGGAAAGUAUUAUGUUACGCCGUUCGGAUCUGCACUU | 0.805
AGUCCUGUGCUACACAUCGUAUGUACCGAAUCGGGGAGGGGUUUUUUUGGGGAGGGGAAAGUAUUAUGUUACGCCGUUCGGAUCUGCACU | 0.738
CUGUGCUACACAUCGUAUGUACCGAAUCGGGGAAAAAAGGGGAAAAAAGGGGAAAAAAGGGGAAAGUAUUAUGUUACGCCGUUCGGAUCU | -0.264
GUCCUGUGCUACACAUCGUAUGUACCGAAUCAAACCCCCCCAAAUUUUUAAACCCAAAAAAGUAUUAUGUUACGCCGUUCGGAUCUGCAC | 0.031

Block 5 — technique: RNA Bind-n-Seq; molecule type: RNA; medium: in vitro; tested at: 365 nM; relative to: no-protein control; direction: higher = stronger binding
Target: RNA binding protein fox-1 homolog 2, RRM domain, GST-SBP tag (RBFOX2, Homo sapiens, UniProt O43251-10, residues 100-194)
Notes: natural RNA segment, single round, ends assumed
Shared flanks, not repeated: GGGAGUUCUACAGUCCGACGAUC … UGGAAUUCUCGGGUGCCAA
Target sequence (chain): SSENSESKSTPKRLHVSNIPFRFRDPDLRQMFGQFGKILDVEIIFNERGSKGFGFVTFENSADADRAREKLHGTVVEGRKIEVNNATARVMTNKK
Sequence | RBNS enrichment (R)
AGAUUUCUCCUCUCCAUGAAGCUGGCACUGCCUCCACCUCCUUCCCUUUCUCCUGUGGACUAGCCUGGAAAGGAGGCGCUUCUAGGCCACCUGGCACAGUUUUCUCUGAA | 0.346
AUCCAUUCCCACCAGUCCAUUUCAGUUGCCACCAGCCUGAACCACUCGGUACCUGGUGUUAACUGGAGCCCUGUUUACAAGGCGGAGUCGGGUCUUGCUGACUUCUCUUC | 0.201
GAGCGAAGCCCUAUCUGGAGACUUGACUCCAGAGCGAAGGUUCAACUGCGCCUGCAGUCACUAUCCCUACUUUUGUGGUUCAUAGAAGUCUGCAUGUGCGUUGAUUCUGU | 0.188
CGCCUCUGACACUUUUGGAGGUGAUAUGAUACAGCCCCCGACCAAACCAGGCUUUGUGGGGGGUGAGAGAAUACAGACACAAGUGGCAGGAUUCAGAUGGAAGCUUCGCA | 0.498
AGGUGUUAAAGGCCCAGGUGUGCUGUGCCAAAGAGCUCAGCAGAGGCUCACGUGGCCCAGGCUGGUGCGCCCGCUGUCUCGGUAAGGGGCGGGUUGGUGUGUUUUCCCCU | 0.251
UAUGAAAAACCCAUUUAGUACAGAUUUUCAUAGUGUAGAGACUGAUUUUGCCCUGUAACUGCAUGUACAUGGUGUAUUUUGCCAUUAAGUCUUUUAUUUGUGGCAAUUUU | 2.65
GGGAAAUAAAAAGAGCAGGGCACUGCUGGUGGGAAGAGGCAUUUUACCUUCCAGUGCAAAUCCUGCUCCUUUGAUUUAAUGGGGUGUACUGGGGCCAGGGGCUGAUUCAC | 0.804
UUAGAGGCACAACGUACAGAUAUUUCAUUUUAGAAGGUUGUCAUAAAUGCUAUUUUUACUAAACAUGUCGUACCUAUGCAGUAUAUACAUUAAAGGAAAGCUUGCACUGU | 0.327
AUCUGGCAGCCAGGCAGCCCCAGAAGAGAGACAUUCAGACAAAGGAAGUCUUCUGCUCACCCUUCCUUAAAGAUCAGAUAAACUUGUCAUCCCUUCCCAGCAAUGAUGAC | 0.697
UUCUCUGUGUACCACCUCUGCUGUCUCAGAUGCCCCCAGCAAAUAAACACUCUUCUCGUUGGUCAGACUGGAUUGUGCGUCCAAUCAUUUUGGCUGGGGUAGGGGGUAAU | 0.439
AAGAAUAAAAACUCACUUGCACGAAUUGAAACGUAAAGAAAUGACACUUGUGAACGUGUGAACGUUAACACUGUAGUUGAUAGAUCUUAAGCUGCUAAUUGUUGAGAGAG | 0.886
CCUACGUGACUGACUACAGUUGGUUUGGAGGCCCUGGACCUCUGUGGCGUCUUUGAAGCCUGGCCUCUUGGCUUCCUUUUGGACUUUGCUUGCUUUCAUUUGAAGUUUGG | 0.515

Block 6 — technique: DHFR PCA, deep sequencing; medium: yeast; added: (+)-ABA 58 µM; relative to: wild-type fitted maximum; direction: higher = stronger binding
Target: ABI1, truncated, D143A, DHFR fusion (Arabidopsis thaliana)
Notes: methotrexate growth selection, single substitutions
Starting sequence: PYL1, truncated, DHFR fusion (Arabidopsis thaliana); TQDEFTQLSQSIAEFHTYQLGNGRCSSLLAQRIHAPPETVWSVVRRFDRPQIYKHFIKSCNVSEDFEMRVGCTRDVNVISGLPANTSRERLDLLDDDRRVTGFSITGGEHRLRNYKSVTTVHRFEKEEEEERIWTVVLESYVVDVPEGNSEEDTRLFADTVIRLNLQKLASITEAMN; partner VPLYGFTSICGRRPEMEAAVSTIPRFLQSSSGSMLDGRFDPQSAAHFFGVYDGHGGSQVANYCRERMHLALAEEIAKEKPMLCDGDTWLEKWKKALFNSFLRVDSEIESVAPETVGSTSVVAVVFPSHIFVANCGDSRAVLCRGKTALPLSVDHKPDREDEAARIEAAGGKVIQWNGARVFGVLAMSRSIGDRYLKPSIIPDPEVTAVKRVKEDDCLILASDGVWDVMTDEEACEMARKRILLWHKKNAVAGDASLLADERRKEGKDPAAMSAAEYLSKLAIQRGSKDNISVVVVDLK
Substitution | relative binding score
D96Q | 30.5%
Q51H | 82.6%
F5D | 69.2%
Q10I | 69.9%
E4C | 83.6%
E14H | 63.1%
R74H | -11.7%
S59L | 50.4%
R24S | 83.7%
T106I | 106%
D65A | 79.2%
A84R | -3.22%
E129S | 94.4%
V62D | 19.2%
L164C | 89.2%
L29G | -5.44%

Repeated from above (block 1):
Substitution | normalised enrichment score
VSAVRKIDFSDTM [L7I] | 5.99
VSAVRKLDFSDYM [T12Y] | 7.54
VSAVRKLDNSDTM [F9N] | -0.0371
VSTVRKLDFSDTM [A3T] | 7.23
VSAVRKLFFSDTM [D8F] | 8.71
VSAERKLDFSDTM [V4E] | 3.26
VSAVRMLDFSDTM [K6M] | 6.75
VSAVRKLDFSWTM [D11W] | 7.82
VHAVRKLDFSDTM [S2H] | 7.18
VSAVRKLDFGDTM [S10G] | 7.24
VSAVRKLDFPDTM [S10P] | 7.02
VQAVRKLDFSDTM [S2Q] | 7.41
